Measurements pooled from the literature.
Numbers after ± are the reported error. Non-standard residues stand in square brackets, D forms with d. Square brackets hold non-standard residues; d marks the D form. Ends that are not written are not given here. * marks the point of attachment.
Form: peptide
DAXX: DAXX 55-144 (Homo sapiens, UniProt Q9UER7)
Chain of UniProt Q9UER7 (whole entry, looked up): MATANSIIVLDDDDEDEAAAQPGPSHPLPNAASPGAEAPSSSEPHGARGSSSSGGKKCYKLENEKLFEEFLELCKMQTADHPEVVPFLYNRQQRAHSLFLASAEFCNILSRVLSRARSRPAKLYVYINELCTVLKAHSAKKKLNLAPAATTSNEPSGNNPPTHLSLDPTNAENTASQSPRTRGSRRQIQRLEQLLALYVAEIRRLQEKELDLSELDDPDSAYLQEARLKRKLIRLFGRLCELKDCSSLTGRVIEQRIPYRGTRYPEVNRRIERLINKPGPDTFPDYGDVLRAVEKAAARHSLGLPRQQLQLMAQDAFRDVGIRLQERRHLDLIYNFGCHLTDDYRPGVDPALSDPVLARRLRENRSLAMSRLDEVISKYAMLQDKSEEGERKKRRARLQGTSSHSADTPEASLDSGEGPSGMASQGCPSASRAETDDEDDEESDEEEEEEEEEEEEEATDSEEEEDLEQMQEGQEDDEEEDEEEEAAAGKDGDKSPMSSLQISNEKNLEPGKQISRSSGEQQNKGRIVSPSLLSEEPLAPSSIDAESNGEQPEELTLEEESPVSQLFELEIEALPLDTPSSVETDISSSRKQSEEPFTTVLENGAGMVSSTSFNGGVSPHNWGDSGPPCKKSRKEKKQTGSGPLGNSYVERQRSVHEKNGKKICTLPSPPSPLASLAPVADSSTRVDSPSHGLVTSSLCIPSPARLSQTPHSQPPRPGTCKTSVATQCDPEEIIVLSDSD
Chain of UniProt P62258 (whole entry, looked up): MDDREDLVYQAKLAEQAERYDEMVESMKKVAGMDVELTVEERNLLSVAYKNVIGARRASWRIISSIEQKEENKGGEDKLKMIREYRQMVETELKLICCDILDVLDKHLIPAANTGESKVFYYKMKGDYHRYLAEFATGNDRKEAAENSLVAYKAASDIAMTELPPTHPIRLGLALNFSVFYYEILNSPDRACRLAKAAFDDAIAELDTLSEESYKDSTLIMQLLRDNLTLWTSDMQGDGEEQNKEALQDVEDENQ
Chain of UniProt P29590 (whole entry, unmodified, looked up): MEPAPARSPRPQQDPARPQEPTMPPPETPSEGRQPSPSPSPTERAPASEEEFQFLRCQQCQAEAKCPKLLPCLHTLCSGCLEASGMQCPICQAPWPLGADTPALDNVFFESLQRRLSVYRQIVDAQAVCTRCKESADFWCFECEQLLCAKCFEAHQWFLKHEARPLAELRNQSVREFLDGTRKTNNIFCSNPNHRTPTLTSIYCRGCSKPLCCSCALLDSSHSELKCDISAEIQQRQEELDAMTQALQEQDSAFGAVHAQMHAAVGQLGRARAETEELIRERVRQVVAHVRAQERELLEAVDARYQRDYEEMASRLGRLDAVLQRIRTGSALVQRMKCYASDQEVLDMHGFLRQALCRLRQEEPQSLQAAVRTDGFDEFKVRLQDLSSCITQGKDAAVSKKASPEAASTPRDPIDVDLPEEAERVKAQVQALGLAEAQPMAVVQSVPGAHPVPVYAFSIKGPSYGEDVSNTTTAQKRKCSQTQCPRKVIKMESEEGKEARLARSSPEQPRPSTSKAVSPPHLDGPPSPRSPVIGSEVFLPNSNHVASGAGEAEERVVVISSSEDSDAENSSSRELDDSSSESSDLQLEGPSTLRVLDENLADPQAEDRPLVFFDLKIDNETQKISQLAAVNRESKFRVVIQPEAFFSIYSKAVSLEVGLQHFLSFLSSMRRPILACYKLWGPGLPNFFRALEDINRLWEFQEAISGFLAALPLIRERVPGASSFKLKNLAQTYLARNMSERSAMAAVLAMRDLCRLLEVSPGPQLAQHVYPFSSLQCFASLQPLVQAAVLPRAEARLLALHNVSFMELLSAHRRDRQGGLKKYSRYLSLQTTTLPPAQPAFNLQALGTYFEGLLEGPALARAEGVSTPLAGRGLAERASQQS
Chain of UniProt P0ADV1 (whole entry, looked up): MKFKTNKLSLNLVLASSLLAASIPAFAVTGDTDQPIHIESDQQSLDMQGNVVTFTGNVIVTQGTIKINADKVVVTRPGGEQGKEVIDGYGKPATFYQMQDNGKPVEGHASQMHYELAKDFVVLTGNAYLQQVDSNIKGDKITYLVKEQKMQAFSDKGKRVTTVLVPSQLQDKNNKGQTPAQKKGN
Chain of UniProt Q96QT6 (whole entry, looked up): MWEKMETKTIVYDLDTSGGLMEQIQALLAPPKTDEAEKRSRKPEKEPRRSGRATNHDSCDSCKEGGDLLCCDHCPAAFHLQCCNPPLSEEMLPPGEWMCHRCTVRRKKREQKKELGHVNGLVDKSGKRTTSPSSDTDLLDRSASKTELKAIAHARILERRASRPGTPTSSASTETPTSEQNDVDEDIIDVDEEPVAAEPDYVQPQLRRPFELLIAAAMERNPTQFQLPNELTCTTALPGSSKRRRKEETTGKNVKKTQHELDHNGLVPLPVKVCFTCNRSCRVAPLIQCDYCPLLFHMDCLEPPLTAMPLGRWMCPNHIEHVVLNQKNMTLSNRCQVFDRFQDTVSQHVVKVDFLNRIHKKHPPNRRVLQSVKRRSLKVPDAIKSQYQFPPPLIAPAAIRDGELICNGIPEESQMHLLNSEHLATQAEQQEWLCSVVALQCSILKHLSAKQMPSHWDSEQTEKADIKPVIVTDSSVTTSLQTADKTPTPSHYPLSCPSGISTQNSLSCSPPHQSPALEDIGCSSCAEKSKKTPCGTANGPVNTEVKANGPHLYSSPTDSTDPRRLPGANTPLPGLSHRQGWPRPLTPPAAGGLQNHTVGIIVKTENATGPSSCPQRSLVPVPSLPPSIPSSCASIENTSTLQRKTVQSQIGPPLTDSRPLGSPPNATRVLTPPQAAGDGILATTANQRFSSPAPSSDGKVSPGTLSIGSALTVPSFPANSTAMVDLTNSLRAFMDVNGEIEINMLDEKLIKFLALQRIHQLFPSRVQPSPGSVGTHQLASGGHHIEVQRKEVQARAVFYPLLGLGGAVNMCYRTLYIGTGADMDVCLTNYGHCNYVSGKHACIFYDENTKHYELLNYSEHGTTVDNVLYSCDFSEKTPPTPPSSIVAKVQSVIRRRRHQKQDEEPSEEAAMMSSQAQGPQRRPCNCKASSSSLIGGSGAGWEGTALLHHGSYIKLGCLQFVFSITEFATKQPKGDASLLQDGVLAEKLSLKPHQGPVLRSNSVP
Chain of UniProt Q8N2H9 (whole entry, looked up): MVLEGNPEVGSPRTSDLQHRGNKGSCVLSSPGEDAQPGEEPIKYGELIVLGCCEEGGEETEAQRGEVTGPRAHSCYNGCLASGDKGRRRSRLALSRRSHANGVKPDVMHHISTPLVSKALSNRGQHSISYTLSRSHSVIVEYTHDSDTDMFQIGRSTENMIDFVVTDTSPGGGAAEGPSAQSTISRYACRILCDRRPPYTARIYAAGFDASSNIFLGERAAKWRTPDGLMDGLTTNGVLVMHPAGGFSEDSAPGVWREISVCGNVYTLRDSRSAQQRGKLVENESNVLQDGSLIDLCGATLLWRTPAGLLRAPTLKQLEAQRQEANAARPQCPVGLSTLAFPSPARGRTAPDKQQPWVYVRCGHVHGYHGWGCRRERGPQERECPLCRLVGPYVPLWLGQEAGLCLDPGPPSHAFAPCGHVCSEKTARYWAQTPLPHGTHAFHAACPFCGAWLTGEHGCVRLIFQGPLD
Chain of UniProt P20936 (whole entry, unmodified, looked up): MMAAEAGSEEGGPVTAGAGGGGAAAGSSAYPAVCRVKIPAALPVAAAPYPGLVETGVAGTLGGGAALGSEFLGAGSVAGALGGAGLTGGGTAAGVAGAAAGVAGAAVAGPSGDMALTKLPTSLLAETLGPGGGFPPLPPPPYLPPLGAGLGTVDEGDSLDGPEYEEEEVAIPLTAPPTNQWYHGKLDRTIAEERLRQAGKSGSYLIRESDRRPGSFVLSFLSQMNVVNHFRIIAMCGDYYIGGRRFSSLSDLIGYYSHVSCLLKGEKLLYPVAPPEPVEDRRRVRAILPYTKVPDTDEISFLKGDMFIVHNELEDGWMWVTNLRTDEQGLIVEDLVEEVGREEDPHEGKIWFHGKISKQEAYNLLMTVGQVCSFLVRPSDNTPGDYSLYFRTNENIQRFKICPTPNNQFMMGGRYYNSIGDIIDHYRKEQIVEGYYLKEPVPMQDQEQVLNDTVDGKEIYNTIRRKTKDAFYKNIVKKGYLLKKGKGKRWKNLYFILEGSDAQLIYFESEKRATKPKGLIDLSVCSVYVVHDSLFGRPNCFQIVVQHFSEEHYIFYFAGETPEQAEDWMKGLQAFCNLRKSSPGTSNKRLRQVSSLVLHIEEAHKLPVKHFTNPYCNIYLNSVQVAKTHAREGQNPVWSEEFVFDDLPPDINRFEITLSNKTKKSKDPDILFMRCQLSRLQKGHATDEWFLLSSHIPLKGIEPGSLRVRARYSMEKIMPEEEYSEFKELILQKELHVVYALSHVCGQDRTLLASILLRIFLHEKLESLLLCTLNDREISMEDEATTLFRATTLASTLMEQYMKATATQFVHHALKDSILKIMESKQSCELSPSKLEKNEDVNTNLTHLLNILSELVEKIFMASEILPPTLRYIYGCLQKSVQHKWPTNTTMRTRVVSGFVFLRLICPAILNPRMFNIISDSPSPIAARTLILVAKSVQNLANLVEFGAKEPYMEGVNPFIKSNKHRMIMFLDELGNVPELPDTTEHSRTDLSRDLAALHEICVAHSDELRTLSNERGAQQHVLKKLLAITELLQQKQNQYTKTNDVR

Sequence | partner | test | setting | Kd
ARTKQTARKSTGY (histone H3 2-13 (UniProt P68431)) | PHF12 48-116 (Homo sapiens, UniProt Q96QT6) | NMR titration | pH 7.0, 25 °C, NaCl 50 mM | 208 ± 14 µM
{TAMRA}-RRRAV[pS]MDNSN (FOXO3 248-258 (human); pS253, N-terminal TAMRA; TAMRA = tetramethylrhodamine; pS = N[C@@H](COP(=O)(O)O)C(=O)O) | YWHAE (Homo sapiens, UniProt P62258) | fluorescence polarisation | pH 7.5 | 5.4 µM
MWPHRVTAAK (peptide; cyclic DSG, fluorescein) | MAP1LC3A (Homo sapiens, UniProt Q9H492) | fluorescence polarisation |  | 0.101 ± 0.022 µM
GSHMSNVIDTDFIDEEVLMSLVIEMGLDRIKE (CITED2 residues 216-242 (Homo sapiens, UniProt Q99967)) | Crebbp 340-439 (Mus musculus, UniProt P45481) | competition with ligand, fluorescence polarisation | pH 6.8, 298 K, NaCl 50 mM, apparent | 1.1 µM
GSFGPDLRAGD (peptide) | PPIB fragment (Homo sapiens) | NMR titration | apparent, cis and trans isomers | 171 ± 5 µM
fluorescein-GYSEVNLSKLFAGCAVKS (POLA1 residues 1445-1462 (Homo sapiens); N-terminal fluorescein; fluorescein = fluorescein label on the N-terminus) | PRIM1/PRIM2 PRIM1 1-420, PRIM2 1-462 K72A/M73A (Homo sapiens) | fluorescence polarisation | pH 7.2, with: fluorescein-labeled peptide 30 nM | 0.245 µM
Ac-DPSD[pY]AEPMDAVVKPRNEEENI[pY]SVPHDS-NH2 (ARHGAP35 residues 1083-1111 (Homo sapiens); pY1087/pY1105, N-acetyl, C-amide; pY = N[C@@H](Cc1ccc(OP(=O)(O)O)cc1)C(=O)O) | RASA1 174-444 C236S/C261S/C372S/C402S (Homo sapiens, UniProt P20936) | ITC | pH 8.0, NaCl 250 mM | 0.01 µM
PENRIAKKMLLEEIKANLSSDEDG (ATRX 1267-1290 (Homo sapiens, UniProt P46100); sequence looked up) | DAXX | ITC | pH 7.5, 25 °C | 31 µM
{FITC}-GFID[pS]D[pT]DVEEE-NH2 (peptide; N-terminal FITC, pS5, pT7, C-terminal amide; FITC = O=C1OC2(c3ccc(O)cc3Oc3cc(O)ccc32)c2ccc(NC(=S)*)cc21; pS = N[C@@H](COP(=O)(O)O)C(=O)O; pT = C[C@@H](OP(=O)(O)O)[C@H](N)C(=O)O) | TOPBP1 641-746 A707K (Homo sapiens, UniProt Q92547) | fluorescence polarisation | pH 7.5, NaCl 150 mM | 12 ± 0.9 µM
VPCIEFDDDDYDTDF (BLM 286-300 (Homo sapiens, UniProt P54132); FITC label; sequence looked up) | MCM6 708-821 C721S (Homo sapiens, UniProt Q14566) | fluorescence polarisation | pH 6.5, NaCl 50 mM | 69.8 ± 4.5 µM
GSKKPVPIIYCNRKTGKCQRM (Podisus maculiventris peptide mature R14K (Podisus maculiventris, UniProt P55788); sequence looked up) | lptA 28-158 (Escherichia coli, UniProt P0ADV1) | BLI | 25 °C, steady-state fit | 0.0015 µM
ASKTSTNATSSSCATPSLKD (CCW5 108-127 (Saccharomyces cerevisiae)) | PMT4 330-521 (Saccharomyces cerevisiae, UniProt P46971) | ITC | pH 7.5, 4 °C | 12 ± 0.9 µM
PENRIAKKMLLEEIKANL (ATRX 1267-1284 (Homo sapiens, UniProt P46100); sequence looked up) | DAXX | ITC | pH 7.5, 25 °C | 101 µM
SGAGEAEERVVVIDDDEDDDAENSSSRY (PML 547-573 S560D/S561D/S562D/S565D (Homo sapiens, UniProt P29590)) | SUMO2 2-93 C48A (Homo sapiens, UniProt P61956) | ITC | pH 7.4, 25 °C, NaCl 50 mM, without zinc or calcium | 12 ± 1 µM
DDNDPENRIAKKMLLEEIKANLSSDEDG (ATRX 1263-1290 (Homo sapiens, UniProt P46100); sequence looked up) | DAXX | ITC | pH 7.5, 25 °C | 0.97 µM
RRRRRRRC / CKNYKKTEV (CRIPT C-terminal PBM; cyclic; disulfide to poly-arginine) | DLG4 309-422 (Homo sapiens, UniProt P78352) | SPR | pH 7.5, NaCl 100 mM | 0.191 µM
PVTVDDDDDDNDPENRIAKKMLLEEIKANLSSDED (ATRX 1255-1289 (Homo sapiens, UniProt P46100); sequence looked up) | DAXX | ITC | pH 7.5, 25 °C | 0.16 µM
fluorescein-YSSAS[pT]FLSP-NH2 (IRAK1 residues 137-145 (Homo sapiens, UniProt P51617); also: fluorescein: FITC or 5,6-FAM; pT141, C-terminal amide, N-terminal fluorescein; pT = C[C@@H](OP(=O)(O)O)[C@H](N)C(=O)O) | PELI3 40-305 (Homo sapiens, UniProt Q8N2H9) | fluorescence polarisation | 25 °C | 9.8 µM

Some of these lines once more:
Sequence | partner | test | setting | Kd
PENRIAKKMLLEEIKANLSSDEDG (ATRX 1267-1290 (Homo sapiens, UniProt P46100); sequence looked up) | DAXX | ITC | pH 7.5, 25 °C | 31 µM
GSKKPVPIIYCNRKTGKCQRM (Podisus maculiventris peptide mature R14K (Podisus maculiventris, UniProt P55788); sequence looked up) | lptA 28-158 (Escherichia coli, UniProt P0ADV1) | BLI | 25 °C, steady-state fit | 0.0015 µM
MWPHRVTAAK (peptide; cyclic DSG, fluorescein) | MAP1LC3A (Homo sapiens, UniProt Q9H492) | fluorescence polarisation |  | 0.101 ± 0.022 µM
